# Results from different studies.
# Protocols differ between the studies behind these lines. Numbers after ± are the reported error.
# Sequence of UniProt P41143 (whole entry, looked up): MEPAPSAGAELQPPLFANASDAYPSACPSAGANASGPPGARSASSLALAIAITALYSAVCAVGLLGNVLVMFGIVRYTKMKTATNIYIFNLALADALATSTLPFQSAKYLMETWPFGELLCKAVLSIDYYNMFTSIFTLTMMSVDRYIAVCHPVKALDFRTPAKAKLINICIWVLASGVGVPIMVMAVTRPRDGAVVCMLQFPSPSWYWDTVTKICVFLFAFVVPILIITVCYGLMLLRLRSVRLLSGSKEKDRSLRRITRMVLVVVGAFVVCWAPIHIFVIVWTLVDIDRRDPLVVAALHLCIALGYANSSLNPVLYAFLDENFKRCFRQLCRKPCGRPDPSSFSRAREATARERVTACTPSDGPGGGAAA
# Sequence of UniProt Q9Y5Y9 (whole entry, looked up): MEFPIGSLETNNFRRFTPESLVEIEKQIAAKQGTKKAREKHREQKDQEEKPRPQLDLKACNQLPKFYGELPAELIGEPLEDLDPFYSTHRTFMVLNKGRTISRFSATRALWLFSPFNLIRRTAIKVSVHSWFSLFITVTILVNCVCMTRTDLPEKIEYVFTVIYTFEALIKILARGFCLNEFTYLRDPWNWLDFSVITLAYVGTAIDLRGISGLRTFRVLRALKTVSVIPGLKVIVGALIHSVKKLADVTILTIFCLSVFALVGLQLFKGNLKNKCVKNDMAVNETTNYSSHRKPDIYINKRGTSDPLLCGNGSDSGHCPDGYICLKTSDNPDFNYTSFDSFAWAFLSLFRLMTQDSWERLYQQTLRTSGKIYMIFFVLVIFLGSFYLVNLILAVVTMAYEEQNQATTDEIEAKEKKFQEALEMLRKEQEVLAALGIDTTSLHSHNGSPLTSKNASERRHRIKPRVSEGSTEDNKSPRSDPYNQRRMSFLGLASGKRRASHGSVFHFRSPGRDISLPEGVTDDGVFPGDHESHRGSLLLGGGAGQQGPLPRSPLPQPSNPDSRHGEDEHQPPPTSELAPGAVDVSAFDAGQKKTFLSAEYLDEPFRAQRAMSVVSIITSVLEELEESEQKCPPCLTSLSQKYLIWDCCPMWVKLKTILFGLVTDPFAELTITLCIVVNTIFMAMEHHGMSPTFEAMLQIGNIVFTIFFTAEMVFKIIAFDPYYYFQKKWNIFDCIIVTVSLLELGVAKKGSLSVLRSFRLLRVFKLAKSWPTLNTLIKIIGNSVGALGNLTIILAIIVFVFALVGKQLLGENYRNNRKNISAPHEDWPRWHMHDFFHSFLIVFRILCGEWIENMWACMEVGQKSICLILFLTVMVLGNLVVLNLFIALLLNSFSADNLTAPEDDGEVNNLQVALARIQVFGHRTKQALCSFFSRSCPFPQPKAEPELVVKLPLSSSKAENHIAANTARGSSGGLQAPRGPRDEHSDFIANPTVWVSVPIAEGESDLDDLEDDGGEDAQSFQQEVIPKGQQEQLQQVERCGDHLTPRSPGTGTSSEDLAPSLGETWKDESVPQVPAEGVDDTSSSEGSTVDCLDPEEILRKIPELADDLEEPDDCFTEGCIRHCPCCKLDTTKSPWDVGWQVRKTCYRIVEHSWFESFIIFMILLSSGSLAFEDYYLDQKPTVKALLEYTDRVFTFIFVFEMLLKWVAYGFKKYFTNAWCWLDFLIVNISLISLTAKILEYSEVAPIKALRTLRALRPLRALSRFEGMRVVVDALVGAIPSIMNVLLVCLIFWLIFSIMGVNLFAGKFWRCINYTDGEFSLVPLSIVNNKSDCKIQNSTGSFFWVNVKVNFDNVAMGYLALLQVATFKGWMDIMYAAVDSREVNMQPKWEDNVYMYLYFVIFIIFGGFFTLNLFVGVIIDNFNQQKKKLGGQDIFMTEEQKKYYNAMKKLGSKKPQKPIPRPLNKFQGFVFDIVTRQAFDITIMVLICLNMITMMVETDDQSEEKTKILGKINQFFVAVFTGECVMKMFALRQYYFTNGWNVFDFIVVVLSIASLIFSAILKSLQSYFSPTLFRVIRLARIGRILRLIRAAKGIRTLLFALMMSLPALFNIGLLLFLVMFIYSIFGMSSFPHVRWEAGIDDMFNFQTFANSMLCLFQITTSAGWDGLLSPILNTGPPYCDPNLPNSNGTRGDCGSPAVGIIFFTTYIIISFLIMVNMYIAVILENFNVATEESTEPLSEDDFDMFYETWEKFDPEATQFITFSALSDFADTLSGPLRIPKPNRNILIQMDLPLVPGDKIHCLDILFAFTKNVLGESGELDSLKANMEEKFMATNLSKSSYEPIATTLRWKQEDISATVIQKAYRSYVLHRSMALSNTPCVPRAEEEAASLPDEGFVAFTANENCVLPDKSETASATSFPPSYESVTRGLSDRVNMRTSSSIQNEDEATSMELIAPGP
Structure (SMILES),tested on,test,system,conditions,how to read,endpoint,value
CC[C@@H](C)[C@@H](NC(=O)[C@@H](CCCCN)NC(=O)[C@@H](CCCCN)NC(=O)[C@@H](CC(C)C)NC(=O)[C@@H](Cc1c[nH]c2ccccc12)NC(=O)CN)C(=O)NCC(=O)N[C@H](CCCCN)C(=O)N[C@H](CCCCN)C(=O)N[C@@H](C(=O)N[C@H](CCC(=O)O)C(=O)N[C@H](CCCNC(=N)N)C(=O)N[C@@H](C(=O)NCC(=O)N[C@H](CCC(N)=O)C(=O)N[C@H](Cc1c[nH]cn1)C(=O)N[C@@H](C(=O)N[C@H](CCCNC(=N)N)C(=O)N[C@H](CC(=O)O)C(=O)N[C@H](C)C(=O)N[C@@H](C(=O)N[C@@H](C(=O)N[C@H](CCC(N)=O)C(=O)N[C@@H](C(=O)N[C@@H](C(=O)NCC(=O)N[C@@H](C(=O)N[C@H](C)C(=O)N[C@H](CCC(N)=O)C(=O)N[C@H](CCC(N)=O)C(=O)N[C@H](C)C(=O)N[C@H](C)C(=O)N[C@H](CC(N)=O)C(=O)N[C@@H](C(=O)N[C@H](C)C(=O)N[C@H](C)C(=O)N[C@@H](C(=O)N[C@H](CC(C)C)C(=O)N[C@H](CCCCN)C(N)=O)[C@H](C)O)C(C)C)C(C)C)[C@H](C)CC)[C@H](C)O)[C@H](C)CC)[C@H](C)O)[C@H](C)O)C(C)C)[C@H](C)CC,Klebsiella pneumoniae,,"isolate RKI 19/16, CAMHB",,,MIC,> 1020 mg/L
Cc1cc(/C=C/C#N)cc(C)c1-n1cnc2cnc(Nc3ccc(C#N)cc3)nc21,HIV-1,"viral replication, single-round infection",RT mutant K101E/M184V,,,EC50,0.9 ± 0.1 nM
CC[C@H](C)[C@H](NC(=O)[C@H](CO)NC(=O)[C@H](Cc1ccc(O)cc1)NC(=O)[C@H](CC(=O)O)NC(=O)[C@H](CO)NC(=O)[C@@H](NC(=O)[C@H](Cc1ccccc1)NC(=O)[C@@H](NC(=O)CNC(=O)[C@H](CCC(=O)O)NC(=O)[C@@H](C)NC(=O)[C@@H](N)Cc1ccc(O)cc1)[C@@H](C)O)[C@@H](C)CC)C(=O)N[C@@H](C)C(=O)N[C@@H](CCSC)C(=O)N[C@@H](CC(=O)O)C(=O)N[C@@H](CCCCN)C(=O)N[C@H](C(=O)N[C@@H](Cc1c[nH]cn1)C(=O)N[C@@H](CCC(N)=O)C(=O)N[C@@H](CCC(N)=O)C(=O)N[C@@H](CC(=O)O)C(=O)N[C@@H](Cc1ccccc1)C(=O)N[C@H](C(=O)N[C@@H](CC(N)=O)C(=O)N[C@@H](Cc1c[nH]c2ccccc12)C(=O)N[C@@H](CC(C)C)C(=O)N[C@@H](CC(C)C)C(=O)N[C@@H](C)C(=O)N[C@@H](CCC(N)=O)C(=O)N[C@@H](CCCCN)C(=O)N1CCC[C@H]1C(=O)N[C@@H](CO)C(=O)N[C@@H](CO)C(=O)NCC(=O)N[C@@H](C)C(=O)N1CCC[C@H]1C(=O)N1CCC[C@H]1C(=O)N1CCC[C@H]1C(=O)N[C@@H](CO)C(N)=O)C(C)C)[C@@H](C)CC,,,human plasma,"5 h, 37 °C",,metabolic stability,stable
Cc1ccc(NS(=O)(=O)c2c(C(=O)N3CCCCCC3)c(C)n(C)c2C)c(Cl)c1,Monkeypox virus,,"Vero C1008, wild type","3.33 µM, 72 h",baseline: untreated,relative infection,0%
COCCCN1CCn2cc(C(=O)NCc3ccc(F)cc3F)c(=O)c(O)c2C1=O,human immunodeficiency virus 1,single-round vector infection,integrase G140S/Q148H,,,EC50,191 ± 15.1 nM
CC(C)C[C@@H]1NC(=O)[C@H](CCCNC(=N)N)NC(=O)[C@@H]2CCCN2C(=O)[C@@H]2CSSC[C@H](NC(=O)CNC(=O)[C@@H]3CCCN3C(=O)[C@H](CCCCN)NC(=O)[C@H](CC(=O)O)NC(=O)[C@@H](NC(=O)CN)C(C)C)C(=O)N[C@@H](CCCNC(=N)N)C(=O)N[C@@H](Cc3ccc(O)cc3)C(=O)N[C@@H](CC(C)C)C(=O)N[C@@H](Cc3ccccc3)C(=O)NCC(=O)NCC(=O)N[C@H]3CSSC[C@H](NC(=O)CNC1=O)C(=O)N[C@@H](CCCCN)C(=O)NCC(=O)N[C@@H](CCCCN)C(=O)NCC(=O)N[C@@H](Cc1c[nH]cn1)C(=O)N[C@@H](CC(=O)O)C(=O)N[C@@H](Cc1ccc(O)cc1)C(=O)N[C@H](C(=O)N[C@@H](C)C(=O)N[C@@H](Cc1c[nH]c4ccccc14)C(=O)N[C@@H](CC(=O)O)C(=O)NCC(=O)N[C@H](C(=O)N[C@@H](Cc1ccccc1)C(=O)N[C@@H](CO)C(=O)N[C@@H](CC(=O)O)C(=O)O)[C@@H](C)O)CSSC[C@H](NC(=O)[C@H](CC(=O)O)NC(=O)[C@H](CC(=O)O)NC(=O)[C@H](CC(=O)O)NC(=O)[C@H](CO)NC(=O)[C@H](CCCCN)NC3=O)C(=O)N2,"SCN10A (Homo sapiens, UniProt Q9Y5Y9)",,,"1 µM, test potential -10 mV",,activation time constant,1.6 ± 0.1 ms
CCCCCCCCCCCCCCCC(=O)N[C@@H](CCC(=O)NCCOCCOCCC(=O)NCCOCCOCCC(=O)NCCCC[C@H](NC(=O)[C@H](CC(=O)O)NC(=O)[C@H](CC(C)C)NC(=O)[C@H](Cc1ccc(O)cc1)NC(=O)[C@H](CCCCN)NC(=O)[C@H](CO)NC(=O)[C@H](Cc1ccc(O)cc1)NC(=O)[C@H](CC(=O)O)NC(=O)[C@H](CO)NC(=O)[C@@H](NC(=O)[C@H](Cc1ccccc1)NC(=O)[C@@H](NC(=O)CNC(=O)[C@H](CCC(N)=O)NC(=O)[C@@H](CO)NC(=O)[C@@H](N)Cc1c[nH]cn1)[C@@H](C)O)[C@@H](C)O)C(=O)N[C@@H](CCCNC(=N)N)C(=O)N[C@@H](CCCNC(=N)N)C(=O)N[C@@H](C)C(=O)N[C@@H](CCC(N)=O)C(=O)N[C@@H](CC(=O)O)C(=O)N[C@@H](Cc1ccccc1)C(=O)N[C@H](C(=O)N[C@@H](CCC(N)=O)C(=O)N[C@@H](Cc1c[nH]c2ccccc12)C(=O)N[C@@H](CC(C)C)C(=O)N[C@@H](CC(C)C)C(=O)N[C@@H](CC(N)=O)C(=O)N[C@H](C(=O)NCC(=O)NCC(=O)N1CCC[C@H]1C(=O)N[C@@H](CO)C(=O)N[C@@H](CO)C(=O)NCC(=O)N[C@@H](C)C(=O)N1CCC[C@H]1C(=O)N1CCC[C@H]1C(=O)N1CCC[C@H]1C(=O)N[C@@H](CO)C(N)=O)[C@@H](C)O)C(C)C)C(=O)O,,refers to: CK,"Sprague-Dawley rat, male","subcutaneous, 500 µg/kg once daily, 14 days",,serum enzyme activity,594 ± 193 U/L
CC(C)CC(C)n1ccn2cc(C(=O)NCc3ccc(F)cc3F)c(=O)c(O)c2c1=O (stereo not shown),human immunodeficiency virus 1,single-round vector infection,integrase S230N,,,EC50,7.7 ± 0.3 nM
Cc1cc(/C=C/C#N)cc(C)c1Nc1nc(Nc2ccc(C#N)cc2)ncc1N,HIV-1,"viral replication, single-round infection",RT mutant E138K,,,EC50,2.1 ± 0.1 nM
COCCN1CCn2cc(C(=O)NCc3ccc(F)cc3F)c(=O)c(O)c2C1=O,human immunodeficiency virus 1,single-round vector infection,integrase N155H,,,EC50,6.5 ± 1 nM
CC[C@H](C)[C@H](NC(=O)[C@H](CCCCN)NC(=O)[C@H](Cc1ccc(O)cc1)NC(=O)[C@H](CCC(N)=O)NC(=O)[C@H](Cc1c[nH]cn1)NC(=O)[C@@H](NC(=O)[C@H](Cc1ccccc1)NC(=O)[C@H](Cc1c[nH]cn1)NC(=O)[C@@H](NC(=O)[C@@H](NC(=O)CNC(=O)[C@H](CCCNC(=N)N)NC(=O)[C@H](Cc1c[nH]c2ccccc12)NC(=O)[C@H](CC(C)C)NC(=O)[C@H](CO)NC(=O)[C@H](CCC(=O)O)NC(=O)[C@H](CC(C)C)NC(=O)[C@H](CCC(=O)O)NC(=O)[C@H](CC(N)=O)NC(=O)[C@H](CC(C)C)NC(=O)[C@H](CC(=O)O)NC(=O)[C@H](CO)NC(=O)[C@H](CCC(=O)O)NC(=O)[C@@H](NC(=O)[C@H](CC(C)C)NC(=O)[C@H](CCC(N)=O)NC(=O)[C@H](CCC(=O)O)NC(=O)[C@H](CCC(=O)O)NC(=O)[C@H](CC(C)C)NC(=O)[C@@H]1CCCN1C(=O)[C@@H](N)Cc1ccccc1)[C@@H](C)O)[C@@H](C)O)[C@@H](C)O)C(C)C)C(=O)N[C@@H](CCSC)C(=O)N1CCC[C@H]1C(=O)N[C@@H](Cc1ccccc1)C(=O)N[C@@H](CCCNC(=N)N)C(=O)N[C@@H](CCCCN)C(=O)N[C@@H](CC(C)C)C(=O)N[C@H](C(=O)N[C@@H](Cc1ccccc1)C(=O)N[C@@H](CCCCN)C(=O)N[C@@H](CCCNC(=N)N)C(=O)N[C@@H](CCCNC(=N)N)C(=O)N[C@@H](CCCCN)C(=O)N[C@@H](CC(N)=O)C(N)=O)C(C)C,Staphylococcus aureus,broth microdilution,MRSA ATCC 33592,,,MIC,> 50 µM
CC(C)C[C@H](NC(=O)[C@H](CO[C@@H]1O[C@H](CO)[C@@H](O)[C@H](O)[C@H]1O)NC(=O)[C@H](CCCCN)NC(=O)[C@H](CC(C)C)NC(=O)[C@H](C)NC(=O)[C@H](CCCCN)NC(=O)[C@H](CCC(=O)O)NC(=O)C(C)(C)NC(=O)[C@H](CC(C)C)NC(=O)[C@H](CC(N)=O)NC(=O)[C@@H]1CCCN1C(=O)[C@H](CC(C)C)NC(=O)[C@H](Cc1ccccc1)NC(=O)CNC(=O)[C@H](NC(=O)[C@@H](N)Cc1ccc(O)cc1)[C@H](C)O)C(N)=O,"OPRD1 (Homo sapiens, UniProt P41143)","ligand displacement, radioligand",,"pH 7.5, cell membranes",,Ki,14 nM
Nc1ccn(C2CCC(OC(C(=O)O)P(=O)(O)O)C2)c(=O)n1 (racemic),HIV-1 reverse transcriptase M184I,"enzyme activity, inhibitor",,"added: poly(rI)·oligo(dC), [3H]dCTP",baseline: mutant over wild type,fold resistance,12 fold

# Some of these lines once more:
Structure (SMILES),tested on,test,system,conditions,how to read,endpoint,value
Cc1cc(/C=C/C#N)cc(C)c1Nc1nc(Nc2ccc(C#N)cc2)ncc1N,HIV-1,"viral replication, single-round infection",RT mutant E138K,,,EC50,2.1 ± 0.1 nM
